Results collected from several papers.
A part holds a random share of what one study measured. Positions count from the first letter of the parent shown.

Block 1 — target: CCNB3, cyclin fold, Cln2 fusion (human); method: yeast growth competition, sequencing; matrix: yeast; notes: strong parent motif; relative to: not given; direction: higher = stronger binding
Parent: E2F1 docking peptide (human); PPVKRRLDFETDH
`PPVKRRLDFATDH [E10A]` — result for “normalised enrichment score”: 2.26.
`PPVKRRCDFETDH [L7C]` — result for “normalised enrichment score”: 0.0974.
`PPFKRRLDFETDH [V3F]` — result for “normalised enrichment score”: 0.317.
Under “normalised enrichment score”, `PPVKRRLDFEHDH [T11H]` is recorded as 2.56.
`PPVKRRTDFETDH [L7T]`: “normalised enrichment score” -0.0531.
`PPHKRRLDFETDH [V3H]` — result for “normalised enrichment score”: 0.109.
`PPVHRRLDFETDH [K4H]` — result for “normalised enrichment score”: 0.378.
Under “normalised enrichment score”, `PVVKRRLDFETDH [P2V]` is recorded as 1.51.
`PPVKRRLDFTTDH [E10T]`: “normalised enrichment score” 2.62.
For `PPVKMRLDFETDH [R5M]`, “normalised enrichment score” read 0.0966.
`PPVKRRGDFETDH [L7G]`: “normalised enrichment score” -0.544.
`PPVNRRLDFETDH [K4N]`: “normalised enrichment score” 2.11.
Under “normalised enrichment score”, `PPNKRRLDFETDH [V3N]` is recorded as -0.0303.
`PPVKRRLDFEADH [T11A]`: “normalised enrichment score” 1.94.
For `PPVKRCLDFETDH [R6C]`, “normalised enrichment score” read 0.811.
For `PPVKRFLDFETDH [R6F]`, “normalised enrichment score” read 0.561.
`PPVKRWLDFETDH [R6W]`: “normalised enrichment score” 0.363.
`PPVKRRLDNETDH [F9N]`: “normalised enrichment score” -0.0244.
`PPVKRRLDFELDH [T11L]` — result for “normalised enrichment score”: 3.01.
`PPVKRRLDFETAH [D12A]`: “normalised enrichment score” 3.15.
Under “normalised enrichment score”, `PPVKRRLHFETDH [D8H]` is recorded as 1.9.
For `PPVKIRLDFETDH [R5I]`, “normalised enrichment score” read 0.106.
Under “normalised enrichment score”, `PPVKRRLDGETDH [F9G]` is recorded as -0.118.
`PPVKRRLDFETFH [D12F]` — result for “normalised enrichment score”: 3.12.
For `PQVKRRLDFETDH [P2Q]`, “normalised enrichment score” read 1.84.

Block 2 — method: RNAcompete; molecule type: RNA; matrix: in vitro; tested at: 20 nM; notes: 7-mer, probes averaged, single round; relative to: mean of 7-mers; direction: higher = stronger binding
Target: PABPC1L2, full length, GST fusion (mouse, UniProt A0ABA7IW68)
Target sequence (chain): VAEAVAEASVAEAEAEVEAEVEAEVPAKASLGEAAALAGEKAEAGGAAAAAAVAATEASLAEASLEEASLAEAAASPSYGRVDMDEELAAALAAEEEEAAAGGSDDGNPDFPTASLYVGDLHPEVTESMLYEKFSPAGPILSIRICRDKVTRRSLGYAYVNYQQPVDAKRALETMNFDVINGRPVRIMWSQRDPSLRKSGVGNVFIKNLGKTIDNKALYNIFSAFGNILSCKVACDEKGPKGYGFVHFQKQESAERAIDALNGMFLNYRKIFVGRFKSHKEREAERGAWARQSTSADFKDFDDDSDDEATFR
`GUUGAGU` has a 7-mer Z-score of -0.313.
For `GUUAACC`, the 7-mer Z-score was -0.324.
With `UCAGCUC` the 7-mer Z-score was -0.306.
For `CCGCCUU`, the 7-mer Z-score was -0.295.
For `CGAGAAG`, the 7-mer Z-score was 0.0986.
`ACAUGGU` has a 7-mer Z-score of -0.121.
`UCACCUU` has a 7-mer Z-score of -0.335.
`CUCGGAC` has a 7-mer Z-score of -0.217.
The 7-mer Z-score of `AAACCCA` is reported as 0.452.
`AAAGGAU` gave a 7-mer Z-score of 0.519.
For `UAACCCC`, the 7-mer Z-score was -0.322.
The 7-mer Z-score of `CUGAAAC` is reported as -0.0192.
With `CCUACCC` the 7-mer Z-score was -0.382.
The 7-mer Z-score of `UACGACU` is reported as -0.0989.
The 7-mer Z-score of `GGAUGCG` is reported as 0.207.
For `GGCCGUU`, the 7-mer Z-score was -0.369.
The 7-mer Z-score of `GAACUUA` is reported as -0.0699.
With `GUAGAUC` the 7-mer Z-score was -0.197.

Block 3 — target: ATF2, bZIP domain (human); method: DHFR protein complementation; matrix: yeast; relative to: wild-type JUN-FOS pair; direction: higher = stronger binding
Notes: single substitutions, most at no-binding floor
Parent: JUN, bZIP domain (human); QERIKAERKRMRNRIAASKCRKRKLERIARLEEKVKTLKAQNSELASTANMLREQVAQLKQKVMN; partner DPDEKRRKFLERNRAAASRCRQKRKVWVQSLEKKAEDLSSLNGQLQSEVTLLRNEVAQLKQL
For `A40P`, the binding fitness was -1.43 natural log.
`T37P` has a binding fitness of -1.52 natural log.
For `L31V`, the binding fitness was -1.48 natural log.
With `E32I` the binding fitness was -1.43 natural log.
With `L45E` the binding fitness was -1.39 natural log.
`L45A` has a binding fitness of -1.5 natural log.
For `L31I`, the binding fitness was -1.53 natural log.
The binding fitness of `L52G` is reported as -1.41 natural log.
For `I28T`, the binding fitness was -1.43 natural log.
The binding fitness of `A49C` is reported as -1.36 natural log.
With `K36A` the binding fitness was -1.17 natural log.
For `I28F`, the binding fitness was -1.54 natural log.
With `E44L` the binding fitness was -1.45 natural log.
`E33F` has a binding fitness of -1.49 natural log.
`E44S` gave a binding fitness of -1.33 natural log.
For `R30G`, the binding fitness was -1.35 natural log.
With `E44W` the binding fitness was -1.45 natural log.
The binding fitness of `K36P` is reported as -1.48 natural log.
For `I28Q`, the binding fitness was -1.51 natural log.
The binding fitness of `E54A` is reported as -1.28 natural log.
`V56Y` gave a binding fitness of -1.45 natural log.

Block 4 — method: DHFR PCA, deep sequencing; matrix: yeast; together with: (+)-ABA 0 µM; relative to: wild-type fitted maximum; direction: higher = stronger binding
Target: ABI1, truncated, D143A, DHFR fusion (Arabidopsis thaliana)
Notes: methotrexate growth selection, single substitutions
Parent: PYL1, truncated, DHFR fusion (Arabidopsis thaliana); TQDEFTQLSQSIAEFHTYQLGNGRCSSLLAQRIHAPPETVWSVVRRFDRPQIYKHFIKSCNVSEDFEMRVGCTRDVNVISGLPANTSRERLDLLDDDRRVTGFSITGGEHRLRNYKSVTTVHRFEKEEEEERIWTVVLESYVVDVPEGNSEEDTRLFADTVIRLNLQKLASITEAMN
Under “relative binding score”, `D153H` is recorded as 2.06%.
Under “relative binding score”, `R163Q` is recorded as 29.1%.
For `E109T`, “relative binding score” read -0.48%.
`H34G`: “relative binding score” 4.75%.
`A35H`: “relative binding score” -0.923%.
`R90F`: “relative binding score” -4.13%.
`L20V`: “relative binding score” 52.9%.
Under “relative binding score”, `V161D` is recorded as 1.42%.
For `K58C`, “relative binding score” read -1.33%.
For `S80G`, “relative binding score” read 3.5%.
Under “relative binding score”, `N61L` is recorded as 21.7%.
`V43M`: “relative binding score” 2.39%.
Under “relative binding score”, `E89L` is recorded as 1.59%.
Under “relative binding score”, `T120C` is recorded as -3.47%.
`F124N` — result for “relative binding score”: 2.43%.
Under “relative binding score”, `F5R` is recorded as 6.74%.
`G23C` — result for “relative binding score”: 1.5%.
For `V40M`, “relative binding score” read -6.37%.
For `P36H`, “relative binding score” read 20.8%.
For `V44H`, “relative binding score” read -4.93%.
`Q31E`: “relative binding score” 1.52%.
Under “relative binding score”, `A35F` is recorded as 0.144%.
Under “relative binding score”, `Y18W` is recorded as 17.8%.
For `T17H`, “relative binding score” read 4.74%.
`W41T` — result for “relative binding score”: -3.68%.

Block 5 — method: aptamer microarray, sandwich; molecule type: DNA with 2'F-ANA; matrix: in vitro; tested at: 200 nM; together with: Cy3 exosite-II aptamer, 400 nM; direction: higher = stronger binding; oligonucleotide: GGTTGGTGTGGTTGG
Target: Prothrombin, mature alpha-thrombin (F2, Homo sapiens, UniProt P00734)
Notes: whole 15-mer aptamer, many near background
`2'F-ANA at 1 2 4 5 6 7 13 15` — result for “mean fluorescence intensity”: 62.5 a.u.
Under “mean fluorescence intensity”, `2'F-ANA at 1 2 3 4 5 8 10 11 12` is recorded as 50.8 a.u.
`2'F-ANA at 1 5 6 14`: “mean fluorescence intensity” 44 a.u.
`2'F-ANA at 1 2 3 4 5 6 7 9 10 11 12 13 15`: “mean fluorescence intensity” 50.1 a.u.
Under “mean fluorescence intensity”, `2'F-ANA at 1 3 4 5 6 9 10 15` is recorded as 48.9 a.u.
`2'F-ANA at 1 3 5 7 8 9 11 12 13`: “mean fluorescence intensity” 85.5 a.u.
`2'F-ANA at 2 3 4 5 6 10 11 12 14` — result for “mean fluorescence intensity”: 51.9 a.u.
For `2'F-ANA at 2 5 9 10 11 12`, “mean fluorescence intensity” read 52.5 a.u.
Under “mean fluorescence intensity”, `2'F-ANA at 1 3 5 6 10 12` is recorded as 47 a.u.
Under “mean fluorescence intensity”, `2'F-ANA at 3 4 11 12 13 15` is recorded as 637 a.u.
`2'F-ANA at 1 2 3 4 7 11 12 13 15` — result for “mean fluorescence intensity”: 376 a.u.
`2'F-ANA at 4 7 9 10 11 14` — result for “mean fluorescence intensity”: 61.5 a.u.
Under “mean fluorescence intensity”, `2'F-ANA at 1 2 4 5 7 12 14 15` is recorded as 47.8 a.u.
`2'F-ANA at 2 4 8 9 11 12 13`: “mean fluorescence intensity” 344 a.u.
Under “mean fluorescence intensity”, `2'F-ANA at 1 2 4 7 8 13` is recorded as 112 a.u.
`2'F-ANA at 2 3 4 5 6 7 8 12 13 14 15`: “mean fluorescence intensity” 60 a.u.
Under “mean fluorescence intensity”, `2'F-ANA at 5 7 8 9 10 14 15` is recorded as 47.7 a.u.
